Assay results pooled from the literature.
Lines come from different studies, so protocols differ.
GFP/gp17 fusion: GFP/gp17 fusion (bacteriophage T4)
B1: UBTF 1-746 (Homo sapiens, UniProt P17480); sequence looked up; chain MNGEADCPTDLEMAAPKGQDRWSQEDMLTLLECMKNNLPSNDSSKFKTTESHMDWEKVAFKDFSGDMCKLKWVEISNEVRKFRTLTELILDAQEHVKNPYKGKKLKKHPDFPKKPLTPYFRFFMEKRAKYAKLHPEMSNLDLTKILSKKYKELPEKKKMKYIQDFQREKQEFERNLARFREDHPDLIQNAKKSDIPEKPKTPQQLWYTHEKKVYLKVRPDATTKEVKDSLGKQWSQLSDKKRLKWIHKALEQRKEYEEIMRDYIQKHPELNISEEGITKSTLTKAERQLKDKFDGRPTKPPPNSYSLYCAELMANMKDVPSTERMVLCSQQWKLLSQKEKDAYHKKCDQKKKDYEVELLRFLESLPEEEQQRVLGEEKMLNINKKQATSPASKKPAQEGGKGGSEKPKRPVSAMFIFSEEKRRQLQEERPELSESELTRLLARMWNDLSEKKKAKYKAREAALKAQSERKPGGEREERGKLPESPKRAEEIWQQSVIGDYLARFKNDRVKALKAMEMTWNNMEKKEKLMWIKKAAEDQKRYERELSEMRAPPAATNSSKKMKFQGEPKKPPMNGYQKFSQELLSNGELNHLPLKERMVEIGSRWQRISQSQKEHYKKLAEEQQKQYKVHLDLWVKSLSPQDRAAYKEYISNKRKSMTKLRGPNPKSSRTTLQSKSESEEDDEEDEDDEDEDEEEEDDENGDSSEDGGDSSESSSEDESEDGDENEEDDEDEDDDEDDDEDEDNESE
B2: gp20 D340A/K342A (bacteriophage T4, UniProt P13334); sequence looked up; chain MKFNVLSLFAPWAKMDERNFKDQEKEDLVSITAPKLDDGAREFEVSSNEAASPYNAAFQTIFGSYEPGMKTTRELIDTYRNLMNNYEVDNAVSEIVSDAIVYEDDTEVVALNLDKSKFSPKIKNMMLDEFSDVLNHLSFQRKGSDHFRRWYVDSRIFFHKIIDPKRPKEGIKELRRLDPRQVQYVREIITETEAGTKIVKGYKEYFIYDTAHESYACDGRMYEAGTKIKIPKAAVVYAHSGLVDCCGKNIIGYLHRAVKPANQLKLLEDAVVIYRITRAPDRRVWYVDTGNMPARKAAEHMQHVMNTMKNRVVYDASTGKIKNQQHNMSMTEDYWLQRRAGAAVTEVDTLPGADNTGNMEDIRWFRQALYMALRVPLSRIPQDQQGGVMFDSGTSITRDELTFAKFIRELQHKFEEVFLDPLKTNLLLKGIITEDEWNDEINNIKIEFHRDSYFAELKEAEILERRINMLTMAEPFIGKYISHRTAMKDILQMTDEEIEQEAKQIEEESKEARFQDPDQEQEDF
B3: ARF1 GTP-bound (Saccharomyces cerevisiae, UniProt P11076); myristoylated; sequence looked up; chain MGLFASKLFSNLFGNKEMRILMVGLDGAGKTTVLYKLKLGEVITTIPTIGFNVETVQYKNISFTVWDVGGQDRIRSLWRHYYRNTEGVIFVVDSNDRSRIGEAREVMQRMLNEDELRNAAWLVFANKQDLPEAMSAAEITEKLGLHSIRNRPWFIQATCATSGEGLYEGLEWLSNSLKNST
B4: gp20 R295A/K296A (bacteriophage T4, UniProt P13334); sequence looked up; chain MKFNVLSLFAPWAKMDERNFKDQEKEDLVSITAPKLDDGAREFEVSSNEAASPYNAAFQTIFGSYEPGMKTTRELIDTYRNLMNNYEVDNAVSEIVSDAIVYEDDTEVVALNLDKSKFSPKIKNMMLDEFSDVLNHLSFQRKGSDHFRRWYVDSRIFFHKIIDPKRPKEGIKELRRLDPRQVQYVREIITETEAGTKIVKGYKEYFIYDTAHESYACDGRMYEAGTKIKIPKAAVVYAHSGLVDCCGKNIIGYLHRAVKPANQLKLLEDAVVIYRITRAPDRRVWYVDTGNMPAAAAAEHMQHVMNTMKNRVVYDASTGKIKNQQHNMSMTEDYWLQRRDGKAVTEVDTLPGADNTGNMEDIRWFRQALYMALRVPLSRIPQDQQGGVMFDSGTSITRDELTFAKFIRELQHKFEEVFLDPLKTNLLLKGIITEDEWNDEINNIKIEFHRDSYFAELKEAEILERRINMLTMAEPFIGKYISHRTAMKDILQMTDEEIEQEAKQIEEESKEARFQDPDQEQEDF
B5: S100A12 (Homo sapiens, UniProt P80511); sequence looked up; chain MTKLEEHLEGIVNIFHQYSVRKGHFDTLSKGELKQLLTKELANTIKNIKDKAVIDEIFQGLDANQDEQVDFQEFISLVAIALKAAHYHTHKE
B6: SNX3 (Saccharomyces cerevisiae, UniProt Q08826); chain MPREFKSFGSTEKSLLSKGHGEPSYSEIYAEPENFLEIEVHNPKTHIPNGMDSKGMFTDYEIICRTNLPSFHKRVSKVRRRYSDFEFFRKCLIKEISMLNHPKVMVPHLPGKILLSNRFSNEVIEERRQGLNTWMQSVAGHPLLQSGSKVLVRFIEAEKFVG
B7: VPS5/VPS17 SNX-BAR complex (Saccharomyces cerevisiae); chain 1 MDYEDNLEAPVWDELNHEGDKTQSLVSNSIESIGQISTNEERKDNELLETTASFADKIDLDSAPEWKDPGLSVAGNPQLEEHDNSKADDLINSLAPEQDPIADLKNSTTQFIATRESGGALFTGNANSPLVFDDTIYDANTSPNTSKSISGRRSGKPRILFDSARAQRNSKRNHSLKAKRTTASDDTIKTPFTDPLKKAEKENEFVEEPLDDRNERRENNEGKFTASVEKNILEQVDRPLYNLPQTGANISSPAEVEENSEKFGKTKIGSKVPPTEKAVAFKVEVKDPVKVGELTSIHVEYTVISESSLLELKYAQVSRRYRDFRWLYRQLQNNHWGKVIPPPPEKQSVGSFKENFIENRRFQMESMLKKICQDPVLQKDKDFLLFLTSDDFSSESKKRAFLTGSGAINDSNDLSEVRISEIQLLGAEDAAEVLKNGGIDAESHKGFMSISFSSLPKYNEADEFFIEKKQKIDELEDNLKKLSKSLEMVDTSRNTLAASTEEFSSMVETLASLNVSEPNSELLNNFADVHKSIKSSLERSSLQETLTMGVMLDDYIRSLASVKAIFNQRSKLGYFLVVIENDMNKKHSQLGKLGQNIHSEKFREMRKEFQTLERRYNLTKKQWQAVGDKIKDEFQGFSTDKIREFRNGMEISLEAAIESQKECIELWETFYQTNL; chain 2 MTSAVPYDPYDDLDNNPFAEPQEEDSEPAATTTDGSSSMSEERVGTEQTAASVQDNGTANNIQNGLGEEGNATRSKTSNEHNENQQPSQPSERVILPERSDEKKKYTLLAKVTGLERFGSATGKKENPTIIFDCSTNLPTFRKQQYKNVKKSYEEFHQLFKYLNVAIQESFVPTLPSAYTTFGINSEEDRMKVTRNFQLWFNRLSQDPLIIRNEEVAFFIESDFNTYTPINKSKSLASGLKRKTLKQLAPPYDEITELAEFRPLVKSIYVVSQSLQEKLLRVSRNRKMMVQEENAFGQDFVNLDEHNKLYRRYGKILTAVGDIDSIIATMDMATLYDGLEWIVRDAYAVKEALTNRHFIMRNLVQAQQNSKAKQEQARRFRSRRDINPMKIDEALRQLKAAAKNEQVLTLKLQRITSNMIIERKQWISWYEEWIRSSIKEFTLRKIEYERKKLTLLERVRSDIRKADENGGLSRLGRHAVSNNNSDTSQTLKGDSWTGESNRKSQIPINKIAHTEFDDELFTEDDGYNSQDSDTTSLNARHAASLLGMSTK
B8: SLD5/PSF1/PSF2/PSF3 (Saccharomyces cerevisiae); chain 1 MDINIDDILAELDKETTAVDSTKITQGSSSTTHRDANTIVGSSLDLNDKTQIYVSPQQDFSDLMKSWKNERCSPELLPYPHQLMKRLLNRISMQSQLIENISMGFLDMQNASNANPPMPNESKLPLLCMETELERLKFVIRSYIRCRLSKIDKFSLYLRQLNEDENSLISLTDLLSKDEIKYHDTHSLIWLKLVNDSILKYMPEELQAINDTEGSVNMIDEPDWNKFVFIHVNGPPDGKWNEDPLLQENEFGKPCYTVTIPDLKEEVELTIGSIYVMRYEVIRDLLRDDKVALI; chain 2 MYGDLGNKLVLEAKRTKQLYARSNQDVNLPMYHEDIIRNILKEVSNLRKNTEYLKEQQQLGMLDDKVAKCQYFVTLLCMERNKRCLLAYQRLRTDILDSMAWNNNGLDLMSSITFSQQDTNNLSHQEQEYLKEYCDLITDLKSGDLVDIDLSGSLVPPSDVFIDVRVLKDAGEIQTEYGVFNLIKDSQFFVRQSDVERLIQQGYLQKI; chain 3 MSLPAHLQQTFSPEEIQFIVENEPIKIFPRITTRQKIRGDDRGTGNHTRWQLITTDDKALNNMVAMRSTEVVLWIALLLKQQSKCSIVAPQWLTTKELDRKIQYEKTHPDRFSELPWNWLVLARILFNKAKDDFHDPIHELRGKIQDLREIRQIKVLKGLKYLNESHLQLDNLSLLEINELRPFITEIMDKLREIHTASLTAGTENDEEEFNI; chain 4 MGYYDIDDVLADGTEFPCKFQYDIPGLGYLENNPGRPITKNTKLSLPLWLARILAIVGGDEALVDEEPVPFVELLPPDMFSTKVMNAIKTDPVALDLHSINSHFFSLAIKWIMLFSEKELANVVSELLLQRAQELNHHASSLSIDLNADSTGKNSANTNIATSTFLLKLEEMEKEIYKKSHESYKDTKRWMFKK
Sequence of UniProt P02489 (whole entry, looked up): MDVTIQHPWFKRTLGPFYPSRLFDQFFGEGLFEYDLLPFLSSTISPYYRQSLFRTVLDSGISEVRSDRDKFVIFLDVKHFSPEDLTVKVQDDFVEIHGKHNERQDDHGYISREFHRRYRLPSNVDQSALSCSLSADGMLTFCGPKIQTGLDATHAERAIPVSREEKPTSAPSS
Sequence of UniProt P32854 (whole entry, looked up): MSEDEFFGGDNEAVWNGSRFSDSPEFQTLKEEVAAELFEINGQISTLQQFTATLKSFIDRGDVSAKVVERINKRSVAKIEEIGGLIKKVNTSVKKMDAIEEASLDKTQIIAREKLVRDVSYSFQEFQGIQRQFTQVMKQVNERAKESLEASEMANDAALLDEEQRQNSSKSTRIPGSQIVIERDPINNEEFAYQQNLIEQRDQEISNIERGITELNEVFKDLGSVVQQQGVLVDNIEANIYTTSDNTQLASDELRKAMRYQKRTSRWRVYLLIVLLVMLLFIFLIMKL
Sequence of UniProt P30533 (whole entry, looked up): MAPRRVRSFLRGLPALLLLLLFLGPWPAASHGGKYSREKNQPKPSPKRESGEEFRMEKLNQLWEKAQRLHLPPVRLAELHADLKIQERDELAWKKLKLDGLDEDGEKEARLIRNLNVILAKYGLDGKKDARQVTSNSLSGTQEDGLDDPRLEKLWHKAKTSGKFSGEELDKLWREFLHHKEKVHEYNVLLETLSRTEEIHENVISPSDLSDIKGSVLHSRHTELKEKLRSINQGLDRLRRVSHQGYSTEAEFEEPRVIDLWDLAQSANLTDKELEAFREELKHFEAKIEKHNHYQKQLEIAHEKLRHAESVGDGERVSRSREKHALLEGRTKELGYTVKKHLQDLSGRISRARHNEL
Sequence of UniProt O60656 (whole entry, looked up): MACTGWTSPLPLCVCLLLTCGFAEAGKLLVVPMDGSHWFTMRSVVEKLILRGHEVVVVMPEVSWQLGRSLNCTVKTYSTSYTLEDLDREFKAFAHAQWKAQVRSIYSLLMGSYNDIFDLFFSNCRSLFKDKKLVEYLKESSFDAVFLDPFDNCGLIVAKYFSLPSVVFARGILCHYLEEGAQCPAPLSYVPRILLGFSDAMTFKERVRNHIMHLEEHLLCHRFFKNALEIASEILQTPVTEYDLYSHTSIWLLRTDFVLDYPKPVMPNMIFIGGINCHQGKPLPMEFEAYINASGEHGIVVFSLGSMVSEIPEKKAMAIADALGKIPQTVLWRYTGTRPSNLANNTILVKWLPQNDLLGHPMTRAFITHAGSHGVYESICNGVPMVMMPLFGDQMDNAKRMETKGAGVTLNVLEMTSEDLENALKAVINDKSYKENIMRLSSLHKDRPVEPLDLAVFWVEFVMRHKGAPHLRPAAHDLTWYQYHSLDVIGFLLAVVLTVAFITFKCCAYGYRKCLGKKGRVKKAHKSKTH
Sequence of UniProt P29496 (whole entry, looked up): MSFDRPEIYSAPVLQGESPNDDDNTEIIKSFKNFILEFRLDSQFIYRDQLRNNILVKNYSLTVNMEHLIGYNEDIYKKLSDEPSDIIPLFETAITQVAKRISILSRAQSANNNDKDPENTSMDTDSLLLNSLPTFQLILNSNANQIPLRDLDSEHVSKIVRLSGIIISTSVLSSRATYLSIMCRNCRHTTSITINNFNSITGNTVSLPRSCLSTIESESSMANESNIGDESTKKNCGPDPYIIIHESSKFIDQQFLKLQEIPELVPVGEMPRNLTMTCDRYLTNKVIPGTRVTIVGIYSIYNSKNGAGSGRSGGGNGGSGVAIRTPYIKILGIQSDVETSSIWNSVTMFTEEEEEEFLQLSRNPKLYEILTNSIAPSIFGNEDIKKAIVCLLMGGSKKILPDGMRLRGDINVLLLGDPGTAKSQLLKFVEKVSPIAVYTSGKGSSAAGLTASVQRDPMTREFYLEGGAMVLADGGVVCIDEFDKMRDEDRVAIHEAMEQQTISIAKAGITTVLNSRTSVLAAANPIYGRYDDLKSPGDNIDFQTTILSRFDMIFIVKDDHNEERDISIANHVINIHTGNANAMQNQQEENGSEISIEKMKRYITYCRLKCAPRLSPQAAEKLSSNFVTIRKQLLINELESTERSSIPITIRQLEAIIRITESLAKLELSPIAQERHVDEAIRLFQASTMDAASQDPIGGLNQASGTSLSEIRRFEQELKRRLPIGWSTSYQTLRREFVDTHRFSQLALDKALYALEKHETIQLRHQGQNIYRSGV

Molecule = GGDSSESSSEDESEDGDENEEDDEDEDDDEDDDEDEDNESE (UBTF 706-746 (Homo sapiens, UniProt P17480); sequence looked up); tested on = TBP/TAF1A/TAF1B/TAF1C (Homo sapiens); assay = pull-down; test system = not purified SL1; setting = with or without phosphatase; endpoint = binding; value = binds
Molecule = MSEETKENEGFTVTAEGKGQGTLSVVTMYHAKAKDQLTCNK (C3 1299-1338, C-terminal GST fusion (Homo sapiens, UniProt P01024)); tested on = ITGAM 145-331 (Homo sapiens, UniProt P11215); assay = ELISA; setting = together with: MgCl2 1 mM; endpoint = binding; value = binds
Molecule = BRD1 fragment E41A/E43A/E45A (Homo sapiens) (sequence not shown); tested on = histone H4 (Bos taurus, UniProt P62803); assay = pull-down; endpoint = binding; value = binds
Molecule = B1 (UBTF 1-746); tested on = TBP/TAF1A/TAF1B/TAF1C (Homo sapiens); assay = pull-down; test system = not purified SL1; setting = with or without phosphatase; endpoint = binding; value = binds
Molecule = B2 (gp20 D340A/K342A); tested on = GFP/gp17 fusion; assay = co-sedimentation; setting = 30 min, NaCl 100 mM, bound relative to gp23; endpoint = binding; value = binds
Molecule = UGT1A9 (Homo sapiens, UniProt O60656); tested on = O=c1c(-c2ccc(O)cc2)coc2cc(O)ccc12; assay = steady-state kinetics; setting = pH 7.4, 37 °C; endpoint = Km; value = 14.3 µM
Molecule = B3 (ARF1 GTP-bound); tested on = Chs5/Chs6 Chs5 1-299 K86A/H87A/K89A/R446A/K449A (Saccharomyces cerevisiae); assay = co-sedimentation; test system = liposomes; setting = together with: GTP; endpoint = binding; value = binds
Molecule = GYWALLITIADRKEFAKF (ITGB3 715-730 K716A/H722A (Homo sapiens)); tested on = Myom1 fragment (Mus musculus); assay = solid-phase binding assay; test system = peptide; endpoint = binding; value = binds
Molecule = CRYAA (Homo sapiens, UniProt P02489); tested on = CRYGC Y46D (Homo sapiens, UniProt P07315); assay = SEC; endpoint = binding; value = binds
Molecule = B4 (gp20 R295A/K296A); tested on = GFP/gp17 fusion; assay = co-sedimentation; setting = 30 min, NaCl 100 mM, bound relative to gp23; endpoint = binding; value = binds
Molecule = B5 (S100A12); tested on = AGER extracellular domain 23-342 N25Q (Homo sapiens, UniProt Q15109); assay = ELISA; setting = together with: CaCl2 1 mM; endpoint = binding; value = binds
Molecule = MCM5 (Saccharomyces cerevisiae, UniProt P29496); tested on = PSF1/PSF2/PSF3/SLD5 (Saccharomyces cerevisiae); assay = cross-linking; endpoint = binding; value = binds
Molecule = LRPAP1 (Homo sapiens, UniProt P30533); tested on = LRP1 (Homo sapiens, UniProt Q07954); assay = competition with ligand, SPR; setting = together with: proMMP-1 75 nM; endpoint = binding; value = binds
Molecule = B6 (SNX3); tested on = PEP12 cytosolic domain 1-266 (Saccharomyces cerevisiae, UniProt P32854); assay = GUV recruitment, fluorescence microscopy; setting = together with: PI-3-P; endpoint = binding; value = binds
Molecule = BACH1 BTB domain C34A (Homo sapiens) (sequence not shown); tested on = FBXL17/SKP1 FBXL17 310-701 (Homo sapiens); assay = BLI; setting = apparent; endpoint = binding; value = binds
Molecule = B7 (VPS5/VPS17 SNX-BAR complex); tested on = VPS26/VPS29/VPS35 D671A/L722A/K726A/R775A (Saccharomyces cerevisiae); assay = fluorescence microscopy; test system = supported membrane tubes; setting = 3 min; endpoint = binding; value = binds
Molecule = B8 (SLD5/PSF1/PSF2/PSF3); tested on = MCM2/MCM3/MCM4/MCM5/MCM6/MCM7 loaded double hexamer, DDK phosphorylated (Saccharomyces cerevisiae); assay = pull-down; endpoint = binding; value = binds
Molecule = ORAI1 fragment R91W, fluorescein label (Homo sapiens) (sequence not shown); tested on = Stim1 fragment (Mus musculus); assay = fluorescence polarisation; endpoint = binding; value = binds

Some of these lines once more:
Molecule = MCM5 (Saccharomyces cerevisiae, UniProt P29496); tested on = PSF1/PSF2/PSF3/SLD5 (Saccharomyces cerevisiae); assay = cross-linking; endpoint = binding; value = binds
